Measured values from different studies.
Each numbered part is a random draw from the data of one study; scales do not carry over between parts.

Block 1 — method: protein-binding microarray; molecule type: double-stranded DNA, one strand shown; sample: in vitro; concentration: not given; direction: higher = stronger binding
Target: Protein max, full length (MAX, Homo sapiens, UniProt P61244-2, residues 1-151)
Notes: k-mer, scored over probes, only values ≥0.25
| Sequence | E-score |
| --- | --- |
| CGTGGACC | 0.261 |
| AAGCAGGT | 0.284 |
| AAACACGT | 0.445 |
| CCACGCCC | 0.361 |
| CATGAGGG | 0.391 |
| ATGCGGGA | 0.259 |
| ACATGGAC | 0.291 |
| CACGCAAC | 0.317 |
| ACCATGTG | 0.49 |
| ACCTGCTG | 0.266 |
| AGCATGTG | 0.475 |
| CCACGTTC | 0.381 |
| CATGGCCA | 0.33 |
| ACTCATGG | 0.3 |
| CACTCCAC | 0.254 |
| CCCGTGTA | 0.338 |
| CCAGGCGG | 0.273 |
| CGTGCAAG | 0.335 |
| CATGTGCC | 0.476 |
| CGCCCCAA | 0.253 |

Block 2 — method: protein binding microarray; molecule type: double-stranded DNA, one strand shown; sample: in vitro; concentration: not given; reference: not given; direction: higher = stronger binding
Target: Histone acetyltransferase KAT6A, winged helix 2, GST fusion (KAT6A, Homo sapiens, UniProt Q92794, residues 85-181)
Notes: 8-mer, flanks averaged, mean of 2 arrays, mostly near background
Construct (chain): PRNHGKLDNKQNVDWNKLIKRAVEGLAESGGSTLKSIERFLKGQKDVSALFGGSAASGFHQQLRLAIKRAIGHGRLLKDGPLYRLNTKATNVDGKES
| Sequence | E-score |
| --- | --- |
| AGTATGCA | 0.0252 |
| GCATCGAA | 0.105 |
| CACTACTC | -0.0198 |
| CACAGGAC | 0.124 |
| AAAATTTA | 0.0728 |
| CTAACTCA | -0.0395 |
| AAAAGCAA | 0.118 |
| AAGTCGAA | -0.0426 |
| GAGGCTGA | -0.012 |
| CATCAAGA | 0.0897 |
| ACTATGCA | -0.072 |
| GGAACCGA | -0.00571 |
| AAGTTCTC | 0.0464 |
| CGCGAGAC | 0.0199 |
| ACAAATCG | -0.0303 |
| ATATAGCA | 0.075 |

Block 3 — method: RNA Bind-n-Seq; molecule type: RNA; sample: in vitro; concentration: 20 nM; notes: 6-mer, flanks averaged, single round; with: 150 mM KCl; reference: input library; direction: higher = stronger binding
Target: TAR DNA-binding protein 43, full length, His tag (TARDBP, Homo sapiens, UniProt Q13148, residues 1-414)
| Sequence | 6-mer enrichment (R) |
| --- | --- |
| AGUUCG | 0.723 |
| CAGGCU | 0.805 |
| CUGUGA | 0.781 |
| UUGACC | 0.659 |
| CAAACG | 0.705 |
| AGGGUU | 1.71 |
| AGCUUG | 0.775 |
| GACCGC | 0.887 |
| UUUUCC | 0.638 |
| CGGCUA | 0.824 |
| UUAUGG | 0.867 |
| CACAAG | 0.758 |
| AUCGCC | 0.619 |
| GUGUAG | 1.45 |
| UCUAGU | 0.6 |
| UUAGUU | 0.616 |

Block 4 — method: universal PBM; molecule type: double-stranded DNA, one strand shown; sample: in vitro; concentration: not given; direction: higher = stronger binding
Target: Sal-like protein 4, full length isoform B (SALL4, Homo sapiens, UniProt Q9UJQ4-2, residues 1-616)
Notes: 8-mer, flanks averaged, mean of replicates
Construct (chain): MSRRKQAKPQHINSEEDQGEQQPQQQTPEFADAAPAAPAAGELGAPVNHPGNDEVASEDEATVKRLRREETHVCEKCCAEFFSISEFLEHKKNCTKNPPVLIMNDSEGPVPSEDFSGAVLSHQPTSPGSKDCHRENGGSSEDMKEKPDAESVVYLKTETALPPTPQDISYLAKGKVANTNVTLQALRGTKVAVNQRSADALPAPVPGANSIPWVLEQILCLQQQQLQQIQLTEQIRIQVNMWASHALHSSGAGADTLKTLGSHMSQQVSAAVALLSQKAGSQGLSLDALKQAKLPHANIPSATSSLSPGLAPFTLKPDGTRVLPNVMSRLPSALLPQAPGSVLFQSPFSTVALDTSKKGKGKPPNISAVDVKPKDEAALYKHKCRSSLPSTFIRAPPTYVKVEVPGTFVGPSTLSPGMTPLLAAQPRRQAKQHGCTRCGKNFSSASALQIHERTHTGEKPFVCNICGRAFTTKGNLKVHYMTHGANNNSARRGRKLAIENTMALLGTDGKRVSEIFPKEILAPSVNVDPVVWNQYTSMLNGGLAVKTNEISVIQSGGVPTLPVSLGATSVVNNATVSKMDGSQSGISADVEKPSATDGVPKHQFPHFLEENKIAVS
| Sequence | E-score |
| --- | --- |
| AGCTTTCC | -0.171 |
| CAGCGCCA | -0.304 |
| CAAGTACG | -0.0397 |
| ATGCAGTC | 0.102 |
| CCTACAGA | 0.00236 |
| ACGAGCCC | -0.189 |
| CAGTGCCA | -0.176 |
| AGCAGCCG | -0.266 |
| CGCGCCGC | -0.277 |
| ATCTTTAG | 0.0896 |
| ATAGCCAA | 0.129 |
| ATATGCCG | 0.155 |
| AGTCACGA | -0.00245 |
| CCTGAGGC | -0.344 |
| GGCCTCCA | -0.254 |
| GGTATGAC | 0.0145 |
| GTAACACA | 0.175 |
| AAGCGCGC | -0.226 |
| AGAACTTA | 0.0704 |
| ATGAAAGG | 0.217 |
| CGGACCGA | -0.289 |
| CTATTAAG | 0.169 |
| AATGTGGG | 0.123 |
| AGAGCTGC | -0.316 |

Block 5 — method: RNA Bind-n-Seq; molecule type: RNA; sample: in vitro; concentration: 365 nM; reference: no-protein control; direction: higher = stronger binding
Target: RNA binding protein fox-1 homolog 2, RRM domain, GST-SBP tag (RBFOX2, Homo sapiens, UniProt O43251-10, residues 100-194)
Notes: natural RNA segment, single round, ends assumed
Shared flanks, not repeated: GGGAGUUCUACAGUCCGACGAUC … UGGAAUUCUCGGGUGCCAA
Construct (chain): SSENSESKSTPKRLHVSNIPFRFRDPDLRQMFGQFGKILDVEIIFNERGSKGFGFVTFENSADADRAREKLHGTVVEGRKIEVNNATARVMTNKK
| Sequence | RBNS enrichment (R) |
| --- | --- |
| ACCUUCUUCAGGCUGUCAAGCACGGGAGAGGAGACACAGUGGGAGGGAUUCAUAAGGAGAAAACAGCGUCUGGCAGGCAUGGCAGAAAGUGCUGUUAAGCAUUAGCUGGC | 1.11 |
| UGUGUGCUUUCCACAGGGGCGUCUCUGCGUCCACGCCUGCACAUCCCGGCGCACGUGUGGGCACCACAGAGGACACGUGAGGGGAAUGGUCACCAGUGAGCCAUAUUUAU | 0.344 |
| UCCCCAACUUUUCCAUCCAGUGCUUAACCUAAAAAACUCCUUAACUCUGCCUUGACCUGAGGAAGACCAUGCUAACUGGUGUUAUUUUGUAUGUACCCUGUGCUUAAUUC | 2.27 |
| UCCUAACAAGUGUAUCUCGAUUAAUAACCUGCCAGUCCCAGAUCACACAUCAUCAUCGAAGUCUUCCCCAGUUAUAAAGAGGUCACAUAGUCGUGUGGGUCGAGGAUUCU | 0.355 |
| UUUUCGUUUCUAUACAACUUCAUUUCAUACACCUUCUGCCCUUACAGCACCUCAUGGGAUCAGAAAAGAGAAAGAUGUUGGCUCUUGUAAUAAAUGCUUUCUACCCUAUA | 1.86 |
| GUUUGAAAAUGAAGGACUGCCUUGCCAGGAACCCAGUCGGGACUGUGGAGAAAAGAUUUGACUGAUAGAUGUUGGGACUUAGGCAAAGCUUUUGAAAGGCCUCUAACCUA | 1.22 |
| GGAUACUCAAUCUGGCCUUAAAAAGAUACACAAAGAUGGGCUGUGGGUCCCUGGAAAGGGGGAGAGUUGCCCUUUACAGAAUCACUCGAGCCCUUUCCAGCACUGUUGGU | 0.373 |
| CUUCCAUGCAGGAGCACGGCAUGGCGGGAGCGGGGCUGCAGAGUAUCCGAGGUGCUGCCGGGGCAGCGGGAGGUGGCUGGACCCAUCGCAUCUAAAACUGGCCCAGGACA | 1.34 |

Block 6 — method: protein-binding microarray; molecule type: double-stranded DNA, one strand shown; sample: in vitro; concentration: 250 nM; notes: 60-bp whole probe; with: salmon DNA 0.4 mg/ml; reference: random background probes; direction: higher = stronger binding; shared flanks, not repeated: GCCTAGCAC … GTCTTGATTCGCTTGACGCTGCTG
Target: Interferon regulatory factor 7, full length, phosphomimetic (IRF7, Homo sapiens, UniProt Q92985, residues 1-503, S101K/S471D/S472D/S475D/S476D/S477D/S483D/S484D/S487D)
Target sequence (chain): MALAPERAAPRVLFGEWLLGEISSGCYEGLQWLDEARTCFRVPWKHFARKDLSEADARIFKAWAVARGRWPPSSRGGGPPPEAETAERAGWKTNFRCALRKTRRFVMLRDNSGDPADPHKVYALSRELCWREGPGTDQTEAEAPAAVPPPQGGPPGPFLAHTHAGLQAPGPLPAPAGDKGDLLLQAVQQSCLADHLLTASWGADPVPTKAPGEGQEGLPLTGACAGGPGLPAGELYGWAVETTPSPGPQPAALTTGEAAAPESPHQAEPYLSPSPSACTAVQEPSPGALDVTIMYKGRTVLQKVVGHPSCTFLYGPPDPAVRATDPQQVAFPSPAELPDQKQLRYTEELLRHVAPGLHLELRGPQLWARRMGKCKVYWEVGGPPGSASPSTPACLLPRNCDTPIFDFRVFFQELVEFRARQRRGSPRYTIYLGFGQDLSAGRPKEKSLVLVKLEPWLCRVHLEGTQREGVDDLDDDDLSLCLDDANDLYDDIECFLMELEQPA
| Sequence | log fluorescence [z-score] |
| --- | --- |
| GAAGATATCGGGACTGGAGACGTGCTA | -0.578 |
| TTAGGACTGGCTTTCGGTTAGTGCTAG | 0.572 |
| GACGGTTTCCTTTTCATGACGTGCTAG | 5.63 |
| TTAGGACTGGGTATCGGCTAGTGCTAG | -0.247 |
| TTAGATTTCAGTTTCGAATAGTGCTAG | 4.94 |
| TTAGGTATCGACTTTCCGTTAGTGCTA | 1.77 |
| TTAGATATCAGTATCGATAAGTGCTAG | 0.256 |
| GACGATGTCGGGTATCGAGACGTGCTA | -0.505 |
| GTCGGTTTCGACTTTCGGGACGTGCTA | 12.1 |
| TCATTTTACAATTTGCTACTGTGCTAG | 1.61 |
| TTAGGTATCCTTCTGCTTTAGTGCTAG | 0.291 |
| GACGGTTTCCTTATCCTCACGTGCTAG | 3.42 |
| TTAGAACTGGGGTATCGATCAGTGCTA | -0.215 |
| GGCTGTTTGGCCCTGAACCTGTGCTAG | -1.08 |
